Assay results collected from several papers.
Each line is one published result; not all experiments were run side by side. ± marks the error that the study gave.
Cell line: HL-60

| SMILES | observed | technique | concentration | time | setting | measurement | result |
| --- | --- | --- | --- | --- | --- | --- | --- |
| CCN(C(=O)c1cc(F)ccc1Oc1nncnc1N1CCC2(C1)CN([C@H](CCCN(C)CCOC)C(C)C)C2)C(C)C | cell growth or viability | – | – | 72 h | – | GI50 | > 10000 nM |
| COc1ccc(C(O)=CC(=O)c2ccc(C(C)(C)C)cc2)cc1.[Ru+2].c1ccc(-c2ccccn2)nc1.c1ccc(-c2ccccn2)nc1 | phototoxicity | – | – | – | light over 450 nm, 29.1 J/cm2 | IC50 | 170 nM |
| Cc1cc(C)cc(NC(=O)N(Cc2ccc(C(=O)NO)cc2)OCc2ccccc2)c1 | cell growth or viability | ATP luminescence | – | 72 h | – | IC50 | 2910 nM |
| CO[C@@H](C[C@H]1C(C)=CC[C@@H]2[C@]3(C)C[C@H](O[C@@H]4O[C@@H](C)[C@H](OC(=O)c5cccc(O)c5)[C@@H](O[C@@H]5O[C@H](CO)[C@@H](O)[C@H](O)[C@H]5NC(C)=O)[C@H]4O)[C@@H](O)C(C)(C)[C@H]3CC[C@]21C)[C@H](N)C(=O)O | cell growth or viability | CCK-8 | – | 72 h | – | IC50 | > 10000 nM |
| CCOc1cncc(-c2ccc(NC(=O)C3(c4ccnc(NS(=O)(=O)C5CC5)n4)CCOCC3)nc2)n1 | cell proliferation | CellTiter-Glo | – | 72 h | – | IC50 | 118 nM |
| CC(C)c1ccc(N(C)c2ccc3c(c2)OCC[C@H]3CNc2cnccc2C(=O)O)cc1 | cell growth or viability | ATP luminescence | – | 7 days | – | IC50 | 9.32 nM |
| CO[C@@H](C[C@H]1C(C)=CC[C@@H]2[C@]3(C)C[C@H](O[C@@H]4O[C@@H](C)[C@H](OC(=O)c5cccc(O)c5)[C@@H](O)[C@H]4O)[C@@H](O)C(C)(C)[C@H]3CC[C@]21C)[C@H](N)C(=O)O | cell growth or viability | CCK-8 | – | 72 h | – | IC50 | > 10000 nM |
| Cc1ccc([N+](=O)[O-])cc1S(=O)(=O)N(C)/N=C/c1cnc2ccc(Br)cn12 | cell growth or viability | – | – | – | – | IC50 | 5 nM |
| CNS(=O)(=O)Nc1nccc(Cc2c(C)c3ccc(Oc4ncccc4F)cc3oc2=O)c1F | cell viability | – | – | 7 days | – | IC50 | 2.22 nM |
| COc1ccc(C(O)=CC(=O)c2ccc(C(C)(C)C)cc2)cc1.[Ru+2].c1ccc(-c2ccnc3c2ccc2c(-c4ccccc4)ccnc23)cc1.c1ccc(-c2ccnc3c2ccc2c(-c4ccccc4)ccnc23)cc1 | cytotoxicity | – | – | – | dark | IC50 | 5380 nM |
| Cc1cc(C)nc(SCC(=O)Nc2ncc(Cc3cccc(OCc4cn(Cc5ccc(C#N)cc5)nn4)c3)s2)n1 | cell viability | MTS | 10 µM | – | – | inhibition | 4.6 ± 1.4% |
| CC(C)=CC1OC(C)(C)C2C=C3C(=O)C(Cl)=CC(O)C3C3C(O)C4OC4C(=O)C132 (stereo not drawn) | cell growth or viability | MTS | – | – | – | IC50 | 1090 nM |

For quick reference, copied from above:
| SMILES | observed | technique | concentration | time | setting | measurement | result |
| --- | --- | --- | --- | --- | --- | --- | --- |
| CCOc1cncc(-c2ccc(NC(=O)C3(c4ccnc(NS(=O)(=O)C5CC5)n4)CCOCC3)nc2)n1 | cell proliferation | CellTiter-Glo | – | 72 h | – | IC50 | 118 nM |
| CNS(=O)(=O)Nc1nccc(Cc2c(C)c3ccc(Oc4ncccc4F)cc3oc2=O)c1F | cell viability | – | – | 7 days | – | IC50 | 2.22 nM |
